Assay results pooled from the literature.
Lines come from different studies, so protocols differ. ± gives the spread as reported.
HSP90AA1: Heat shock protein HSP 90-alpha (HSP90AA1, Homo sapiens, UniProt P07900)
HSP90AA1 C-terminal domain: Heat shock protein HSP 90-alpha, C-terminal domain (HSP90AA1, Homo sapiens, UniProt P07900)

Structure (SMILES) | target | test | conditions | quantity | result
O=C1c2ccc(O)cc2-c2c(-c3ccc(O)cc3)oc3cc(O)cc1c23 | HSP90AA1 | binding, FP | – | Kd | 310 nM
CCC(C)n1c(C(=O)Nc2cnc(C(=O)NC)n(CC(C)C)c2=O)ncc(NC(=O)c2ncc(NC(=O)c3ccccc3)c(=O)[nH]2)c1=O (stereo not shown) | HSP90AA1 C-terminal domain | binding, microscale thermophoresis | C-terminal domain | Kd | 249000 nM
COC(=O)c1c(O)cc(O)c(Cl)c1CCc1cccc(Cc2ccccc2)c1 | HSP90AA1 | ligand displacement, FP | – | Kd | > 100000 nM
Cc1cc(C)c(S(=O)(=O)N(CC(=O)O)c2ccc(Nc3ccnc(N4CCCC4)n3)cc2)c(C)c1 | Heat shock protein HSP 90-alpha (HSP90AA1, Homo sapiens, UniProt P07900, E47A) | binding, biolayer interferometry | mutant E47A | Kd | > 100000 nM
CC(C)c1cc(-n2nnc(C(=O)Nc3c(F)ccc(NS(=O)(=O)N(C)C)c3F)c2-c2ccncc2)c(O)cc1O | HSP90AA1 | ligand displacement, FP | – | IC50 | 8 nM
CCC(C)n1c(C(=O)Nc2cnc(C(=O)NC)n(CC(C)C)c2=O)ncc(NC(=O)c2ncc(NC(=O)c3ccccc3)c(=O)n2CCc2ccc(OCc3ccccc3)cc2)c1=O (stereo not shown) | HSP90AA1 C-terminal domain | binding, microscale thermophoresis | C-terminal domain | Kd | 11700 ± 1000 nM
CCNC(=O)c1noc(-c2cc(C(C)C)c(O)cc2O)c1NC(=O)CCN1CCOCC1 | HSP90AA1 | ligand displacement, FP | – | IC50 | 200 nM
COC(=O)c1c(O)cc(O)c(Cl)c1CCc1ccccc1Cc1ccc(Cl)cc1 | HSP90AA1 | ligand displacement, FP | – | Kd | > 100000 nM
N=C(N)NCCC[C@H](NC(=O)CNC(=O)[C@H](CCCNC(=N)N)NC(=O)CNC(=O)[C@H](CCCNC(=N)N)NC(=O)CNC(=O)[C@H](CCCNC(=N)N)NC(=O)CNC(=O)[C@H](CCCNC(=N)N)NC(=O)CNC(=O)[C@H](CCCNC(=N)N)NC(=O)CNC(=O)[C@H](CCCNC(=N)N)NC(=O)CNC(=O)[C@H](CCCNC(=N)N)NC(=O)CNC(=O)[C@H](CCCNC(=N)N)NC(=O)CNC(=O)[C@H](CCCNC(=N)N)NC(=O)CNC(=O)[C@H](CCCNC(=N)N)NC(=O)CNC(=O)[C@H](CCCNC(=N)N)NC(=O)CNC(=O)[C@H](CCCNC(=N)N)NC(=O)CNC(=O)[C@H](CCCNC(=N)N)NC(=O)CNC(=O)[C@H](CCCNC(=N)N)NC(=O)CNC(=O)[C@H](CCCNC(=N)N)NC(=O)CNC(=O)[C@H](CCCNC(=N)N)NC(=O)CNC(=O)[C@H](CCCNC(=N)N)NC(=O)CNC(=O)[C@H](CCCNC(=N)N)NC(=O)CNC(=O)[C@H](CCCNC(=N)N)NC(=O)CN)C(=O)O | HSP90AA1 | binding, BLI | pH 7.5 | Kd | 8.97 nM
Brc1ccc(Nc2nc(NN=Cc3c[nH]c4ccccc34)nc(N3CCOCC3)n2)cc1 | HSP90AA1 | binding, SPR | – | Kd | 219 nM

Repeated from above:
Structure (SMILES) | target | test | conditions | quantity | result
Cc1cc(C)c(S(=O)(=O)N(CC(=O)O)c2ccc(Nc3ccnc(N4CCCC4)n3)cc2)c(C)c1 | Heat shock protein HSP 90-alpha (HSP90AA1, Homo sapiens, UniProt P07900, E47A) | binding, biolayer interferometry | mutant E47A | Kd | > 100000 nM
